Assay results collected from several papers.
Parts stem from different laboratories: compare values within a part only. ± marks the error that the study gave.
Sequence of UniProt Q9HBH9 (whole entry, looked up): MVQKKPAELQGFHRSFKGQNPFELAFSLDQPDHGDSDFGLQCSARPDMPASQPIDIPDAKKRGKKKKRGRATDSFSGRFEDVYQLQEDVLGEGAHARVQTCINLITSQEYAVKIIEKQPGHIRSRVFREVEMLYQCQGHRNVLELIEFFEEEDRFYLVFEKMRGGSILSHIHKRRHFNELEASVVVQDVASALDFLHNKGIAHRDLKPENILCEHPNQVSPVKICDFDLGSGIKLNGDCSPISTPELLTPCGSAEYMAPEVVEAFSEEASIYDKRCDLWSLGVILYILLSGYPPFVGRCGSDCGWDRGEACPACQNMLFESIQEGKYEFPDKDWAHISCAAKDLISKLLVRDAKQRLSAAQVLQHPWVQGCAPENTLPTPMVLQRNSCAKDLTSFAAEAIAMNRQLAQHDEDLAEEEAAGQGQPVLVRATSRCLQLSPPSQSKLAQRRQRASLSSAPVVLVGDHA
Sequence of UniProt P51957 (whole entry, looked up): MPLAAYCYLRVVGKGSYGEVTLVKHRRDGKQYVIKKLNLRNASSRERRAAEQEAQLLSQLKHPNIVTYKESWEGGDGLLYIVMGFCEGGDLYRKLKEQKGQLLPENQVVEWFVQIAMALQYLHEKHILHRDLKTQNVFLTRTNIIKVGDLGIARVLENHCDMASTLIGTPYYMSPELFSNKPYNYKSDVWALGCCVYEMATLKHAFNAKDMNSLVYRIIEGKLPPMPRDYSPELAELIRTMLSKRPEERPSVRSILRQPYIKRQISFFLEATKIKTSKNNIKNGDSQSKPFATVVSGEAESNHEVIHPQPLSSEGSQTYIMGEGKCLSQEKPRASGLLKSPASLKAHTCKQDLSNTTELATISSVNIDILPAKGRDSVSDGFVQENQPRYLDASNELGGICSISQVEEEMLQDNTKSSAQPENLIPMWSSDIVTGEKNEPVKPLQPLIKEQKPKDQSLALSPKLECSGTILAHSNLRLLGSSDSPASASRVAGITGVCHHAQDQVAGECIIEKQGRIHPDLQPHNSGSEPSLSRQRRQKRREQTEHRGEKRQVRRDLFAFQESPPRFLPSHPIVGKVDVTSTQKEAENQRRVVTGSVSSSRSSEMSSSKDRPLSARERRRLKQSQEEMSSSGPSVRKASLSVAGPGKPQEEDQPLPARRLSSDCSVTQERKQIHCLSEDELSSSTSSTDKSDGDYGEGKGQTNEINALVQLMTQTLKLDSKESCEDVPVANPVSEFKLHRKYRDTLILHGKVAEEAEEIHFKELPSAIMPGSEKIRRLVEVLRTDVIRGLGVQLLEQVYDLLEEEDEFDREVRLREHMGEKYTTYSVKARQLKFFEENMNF
Sequence of UniProt P07947 (whole entry, looked up): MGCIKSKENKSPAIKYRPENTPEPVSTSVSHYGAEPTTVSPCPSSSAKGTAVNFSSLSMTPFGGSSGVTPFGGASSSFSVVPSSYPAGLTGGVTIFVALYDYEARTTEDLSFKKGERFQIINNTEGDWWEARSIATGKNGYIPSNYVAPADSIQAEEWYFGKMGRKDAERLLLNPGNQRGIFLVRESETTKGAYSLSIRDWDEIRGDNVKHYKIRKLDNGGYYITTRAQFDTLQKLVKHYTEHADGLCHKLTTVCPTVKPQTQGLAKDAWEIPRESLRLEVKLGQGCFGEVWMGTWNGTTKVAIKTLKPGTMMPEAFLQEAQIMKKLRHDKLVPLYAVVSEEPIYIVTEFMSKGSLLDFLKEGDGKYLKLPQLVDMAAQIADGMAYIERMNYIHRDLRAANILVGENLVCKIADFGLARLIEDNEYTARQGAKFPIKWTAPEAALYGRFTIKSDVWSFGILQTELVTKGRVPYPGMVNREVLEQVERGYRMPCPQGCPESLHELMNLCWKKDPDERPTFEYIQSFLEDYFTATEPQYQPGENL
Sequence of UniProt Q96RR4 (whole entry, looked up): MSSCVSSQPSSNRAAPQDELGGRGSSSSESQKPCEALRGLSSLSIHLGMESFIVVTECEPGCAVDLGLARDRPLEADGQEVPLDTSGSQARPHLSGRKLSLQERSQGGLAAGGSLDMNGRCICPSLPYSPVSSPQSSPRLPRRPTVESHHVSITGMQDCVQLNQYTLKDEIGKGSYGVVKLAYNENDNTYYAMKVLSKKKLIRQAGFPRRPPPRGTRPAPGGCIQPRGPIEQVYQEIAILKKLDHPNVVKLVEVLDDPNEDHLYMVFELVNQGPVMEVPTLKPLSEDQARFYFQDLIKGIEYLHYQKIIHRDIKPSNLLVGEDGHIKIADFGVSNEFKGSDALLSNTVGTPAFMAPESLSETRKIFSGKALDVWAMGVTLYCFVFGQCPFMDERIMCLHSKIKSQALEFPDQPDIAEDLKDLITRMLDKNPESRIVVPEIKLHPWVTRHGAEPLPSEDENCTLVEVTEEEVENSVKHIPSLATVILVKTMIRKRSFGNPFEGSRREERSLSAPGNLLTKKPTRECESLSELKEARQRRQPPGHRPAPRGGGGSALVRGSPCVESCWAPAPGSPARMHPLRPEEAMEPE
Sequence of UniProt P53778 (whole entry, looked up): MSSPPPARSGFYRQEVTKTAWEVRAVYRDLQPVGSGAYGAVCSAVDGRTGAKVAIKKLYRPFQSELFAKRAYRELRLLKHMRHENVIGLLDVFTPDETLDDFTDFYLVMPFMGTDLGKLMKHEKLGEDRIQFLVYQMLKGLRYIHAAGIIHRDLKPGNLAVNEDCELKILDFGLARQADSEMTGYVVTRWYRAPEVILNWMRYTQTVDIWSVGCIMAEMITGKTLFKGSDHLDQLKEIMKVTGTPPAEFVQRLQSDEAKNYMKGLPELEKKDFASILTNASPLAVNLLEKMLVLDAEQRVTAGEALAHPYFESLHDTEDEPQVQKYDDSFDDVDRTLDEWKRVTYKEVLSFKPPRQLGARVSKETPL
Sequence of UniProt P10721 (whole entry, looked up): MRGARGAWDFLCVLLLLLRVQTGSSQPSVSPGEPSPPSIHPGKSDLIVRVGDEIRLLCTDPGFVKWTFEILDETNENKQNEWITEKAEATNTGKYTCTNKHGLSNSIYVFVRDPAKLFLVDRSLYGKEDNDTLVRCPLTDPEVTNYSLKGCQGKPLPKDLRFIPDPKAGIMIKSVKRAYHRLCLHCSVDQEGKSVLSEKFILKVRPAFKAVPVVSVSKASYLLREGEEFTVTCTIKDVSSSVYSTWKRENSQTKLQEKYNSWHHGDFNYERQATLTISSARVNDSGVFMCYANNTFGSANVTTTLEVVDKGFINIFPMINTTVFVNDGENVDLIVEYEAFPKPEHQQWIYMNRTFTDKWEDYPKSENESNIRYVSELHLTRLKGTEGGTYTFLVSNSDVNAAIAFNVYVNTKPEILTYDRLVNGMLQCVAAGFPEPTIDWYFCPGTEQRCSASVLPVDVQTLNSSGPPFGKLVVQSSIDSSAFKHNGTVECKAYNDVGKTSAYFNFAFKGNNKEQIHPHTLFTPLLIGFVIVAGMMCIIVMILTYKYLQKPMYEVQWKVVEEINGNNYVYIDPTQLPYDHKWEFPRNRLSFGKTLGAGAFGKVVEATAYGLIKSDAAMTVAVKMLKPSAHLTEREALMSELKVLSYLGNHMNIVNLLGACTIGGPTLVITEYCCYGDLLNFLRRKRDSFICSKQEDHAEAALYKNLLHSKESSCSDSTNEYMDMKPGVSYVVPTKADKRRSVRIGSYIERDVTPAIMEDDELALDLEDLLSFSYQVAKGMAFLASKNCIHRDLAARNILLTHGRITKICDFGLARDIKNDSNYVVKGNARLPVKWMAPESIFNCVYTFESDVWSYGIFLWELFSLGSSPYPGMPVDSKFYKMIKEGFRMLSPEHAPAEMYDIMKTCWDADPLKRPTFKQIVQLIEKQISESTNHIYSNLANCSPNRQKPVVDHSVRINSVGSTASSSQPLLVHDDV
Sequence of UniProt Q14680 (whole entry, looked up): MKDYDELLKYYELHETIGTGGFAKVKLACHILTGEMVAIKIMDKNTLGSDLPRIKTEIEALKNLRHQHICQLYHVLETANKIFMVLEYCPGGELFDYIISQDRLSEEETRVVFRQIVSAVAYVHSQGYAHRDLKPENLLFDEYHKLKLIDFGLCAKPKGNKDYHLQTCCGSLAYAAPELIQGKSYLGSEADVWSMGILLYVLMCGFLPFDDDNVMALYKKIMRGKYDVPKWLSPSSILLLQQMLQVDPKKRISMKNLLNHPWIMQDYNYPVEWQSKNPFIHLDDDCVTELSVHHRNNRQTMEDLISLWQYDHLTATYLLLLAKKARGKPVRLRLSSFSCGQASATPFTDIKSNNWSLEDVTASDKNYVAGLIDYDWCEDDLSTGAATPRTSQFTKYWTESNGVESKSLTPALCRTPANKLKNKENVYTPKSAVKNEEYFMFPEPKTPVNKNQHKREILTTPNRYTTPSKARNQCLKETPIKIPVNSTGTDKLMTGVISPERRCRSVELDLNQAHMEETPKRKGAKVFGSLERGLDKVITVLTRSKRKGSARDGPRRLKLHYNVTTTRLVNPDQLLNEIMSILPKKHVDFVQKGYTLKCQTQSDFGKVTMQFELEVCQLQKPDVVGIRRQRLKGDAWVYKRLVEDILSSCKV
Sequence of UniProt P45985 (whole entry, looked up): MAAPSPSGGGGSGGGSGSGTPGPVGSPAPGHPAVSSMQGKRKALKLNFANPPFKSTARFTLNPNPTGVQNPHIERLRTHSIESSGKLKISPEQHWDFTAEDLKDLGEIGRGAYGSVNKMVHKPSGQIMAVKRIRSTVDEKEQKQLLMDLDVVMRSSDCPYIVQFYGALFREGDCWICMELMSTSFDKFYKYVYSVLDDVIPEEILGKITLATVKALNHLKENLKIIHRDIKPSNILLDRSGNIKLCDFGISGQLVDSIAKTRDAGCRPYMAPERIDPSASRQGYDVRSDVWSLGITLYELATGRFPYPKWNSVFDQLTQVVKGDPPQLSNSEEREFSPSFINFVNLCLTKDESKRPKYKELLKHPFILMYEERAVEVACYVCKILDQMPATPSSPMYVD

Block 1 — effect on: enzyme activity; mode: inhibitor; concentration: 0.5 µM; baseline: control; measurement: remaining activity
Structure (SMILES): Cc1cc(Nc2cc(N3CCN(C)CC3)nc(Sc3ccc(NC(=O)C4CC4)cc3)n2)[nH]n1
target = MAP4K2 (Homo sapiens, UniProt Q12851); value = 102%
target = NEK4 (Homo sapiens, UniProt P51957); value = 103%
target = KIT (Homo sapiens, UniProt P10721); value = 89.2%
target = IRAK4 (Homo sapiens, UniProt Q9NWZ3); value = 78%
target = MKNK2 (Homo sapiens, UniProt Q9HBH9); value = 97.6%
target = PRKCI (Homo sapiens, UniProt P41743); value = 98.9%
target = MAPK13 (Homo sapiens, UniProt O15264); value = 89.5%
target = Cyclin-dependent kinase 9, with cyclin T1 (CDK9, Homo sapiens, UniProt P50750); value = 93.1%
target = PRKG1 (Homo sapiens, UniProt Q13976); value = 90.8%
target = MAPK12 (Homo sapiens, UniProt P53778); value = 96.2%

Block 2 — host: human; medium: microsomes or S9; concentration: 2 µM; time: 0.5 h; measurement: remaining compound
SMILES = CC(C)c1c(Cl)nc(N(C)C)nc1N1CCN(S(C)(=O)=O)CC1; value = 18.6%
SMILES = CCC(CNC(=O)CCOCC(C)C)NC(=O)CCOCC(C)C (centres unmarked); value = 24.2%
SMILES = Cc1ccn(CCNc2ncnc3c2CCN(c2cnccn2)CC3)n1; value = 2.05%
SMILES = NC(=O)N1CCc2cc(NS(=O)(=O)c3cc(F)ccc3F)ccc21; value = > 100%
SMILES = CC(C)COc1cc(=O)n2c(c1C(=O)NCCCN1CCCCC1)CCCCC2; value = 92.9%
SMILES = Cc1ccc(OCCOCCN2CC(C)OC(C)C2)c(Br)c1 (centres unmarked); value = 0.146%
SMILES = Nc1cccc(CCC2CCc3ccccc3N2)c1 (centres unmarked); value = 70.6%
SMILES = CCCOc1ccc(Oc2nc3ccccc3n3cnnc23)cc1; value = 56%

Block 3 — effect on: cell-free assay; technique: competition with immobilised ligand; concentration: 1 µM; measurement: remaining binding
Compound: O=C(NCc1ncc(C(F)(F)F)cc1Cl)c1ccc2c(c1)C1(CCS(=O)(=O)CC1)[C@@H](C1CC1)N2S(=O)(=O)c1ccc(F)cc1
target = EGFR (Homo sapiens, UniProt P00533, del752-759); value = 87%
target = FLT4 (Homo sapiens, UniProt P35916); value = 100%
target = ACVRL1 (Homo sapiens, UniProt P37023); value = 72%
target = YES1 (Homo sapiens, UniProt P07947); value = 93%
target = STK32A (Homo sapiens, UniProt Q8WU08); value = 99%
target = EPHA1 (Homo sapiens, UniProt P21709); value = 86%
target = CAMKK2 (Homo sapiens, UniProt Q96RR4); value = 83%
target = MAP2K4 (Homo sapiens, UniProt P45985); value = 76%
target = TYRO3 (Homo sapiens, UniProt Q06418); value = 84%
target = MELK (Homo sapiens, UniProt Q14680); value = 100%

Block 4 — effect on: kinase activity; measurement: remaining activity
SMILES: COc1cc(C(=O)N2CCC(N3CCN(C)CC3)CC2)ccc1Nc1ncc2c(n1)N(C)c1ccccc1C(=O)N2C
target = ROCK2; concentration = 1 µM; value = 84 ± 1%
target = PIM2; concentration = 10 µM; value = 97 ± 5%
target = MARK2; concentration = 1 µM; value = 62 ± 6%
target = PRK2; concentration = 10 µM; value = 80 ± 9%
target = MARK3; concentration = 1 µM; value = 100 ± 12%
target = CSK; concentration = 10 µM; value = 80 ± 12%
target = MST2; concentration = 10 µM; value = 98 ± 13%

Repeated from above (block 1):
target = MKNK2 (Homo sapiens, UniProt Q9HBH9); value = 97.6%
target = PRKCI (Homo sapiens, UniProt P41743); value = 98.9%
target = MAPK13 (Homo sapiens, UniProt O15264); value = 89.5%
target = Cyclin-dependent kinase 9, with cyclin T1 (CDK9, Homo sapiens, UniProt P50750); value = 93.1%
target = PRKG1 (Homo sapiens, UniProt Q13976); value = 90.8%
